Assay results pooled from the literature.
Each numbered part is a random draw from the data of one study; scales do not carry over between parts. Substitutions count along the parent as printed.

Series 1
Target: CCNA1, cyclin fold, Cln2 fusion (human)
Technique: yeast growth competition, sequencing
Medium: yeast
Setting: weak parent motif
Relative to: not given
Direction: higher = stronger binding
Quantity: normalised enrichment score
Starting sequence: SLBP docking peptide (human); ARYKRKLLINDFG
ARYKRKLHINDFG [L8H]: 0.323
ARAKRKLLINDFG [Y3A]: 0.912
ARYKRKLLDNDFG [I9D]: -0.000246
ARYKAKLLINDFG [R5A]: 0.527
ARYKRKLLINDFR [G13R]: 0.393
ARYKEKLLINDFG [R5E]: 0.4
ARYKRKLLIYDFG [N10Y]: 0.355
ARYKRKLLVNDFG [I9V]: 0.0546
ERYKRKLLINDFG [A1E]: 0.294
ARYKRKLLINKFG [D11K]: 0.286
AIYKRKLLINDFG [R2I]: 0.52
ARYKRKLLIIDFG [N10I]: 0.44
ASYKRKLLINDFG [R2S]: -0.000287
ARYKDKLLINDFG [R5D]: 0.338
ARYKRSLLINDFG [K6S]: -0.0334
ARRKRKLLINDFG [Y3R]: 0.0269
ARYKWKLLINDFG [R5W]: -0.057
ARYKRKVLINDFG [L7V]: 0.142
ARYKRKQLINDFG [L7Q]: 0.309
RRYKRKLLINDFG [A1R]: 0.208
ARYKRKLLINDFV [G13V]: 0.829
ARYKKKLFINDFG [R5K L8F]: 0.299
ARYKRALLINDFG [K6A]: 0.569

Series 2
Target: Histone acetyltransferase KAT6A, both winged helices, GST fusion (KAT6A, Homo sapiens, UniProt Q92794, residues 1-181)
Technique: protein binding microarray
Molecule type: double-stranded DNA, one strand shown
Medium: in vitro
Concentration: not given
Setting: 8-mer, flanks averaged, mean of 2 arrays, mostly near background
Relative to: not given
Direction: higher = stronger binding
Quantity: E-score
Construct (chain): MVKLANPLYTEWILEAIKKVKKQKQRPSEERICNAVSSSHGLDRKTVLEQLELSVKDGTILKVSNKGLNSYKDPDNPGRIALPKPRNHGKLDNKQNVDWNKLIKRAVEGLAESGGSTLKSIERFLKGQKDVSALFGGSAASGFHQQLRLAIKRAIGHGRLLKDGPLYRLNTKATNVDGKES
CGATGCAG: -0.00945
ATGTGGAA: 0.00816
GTTTTTCA: 0.0745
AAAACTAT: -0.0343
AGCGCGGA: 0.25
AGATCGGG: 0.0668
CTGGGCGC: 0.0941
ATGTGTTA: -0.119
AGTATCGG: 0.109
CCAACGAA: -0.0189
GAAATTGC: 0.00648
CGGCATCA: 0.224
ACAAGTTG: -0.0819
CAAGGCAG: -0.316
AATCCCCT: -0.328
CTAACAGA: -0.16

Series 3
Target: ABI1, truncated, D143A, DHFR fusion (Arabidopsis thaliana)
Technique: DHFR PCA, deep sequencing
Medium: yeast
Setting: methotrexate growth selection, single substitutions
With: (+)-ABA 58 µM
Relative to: wild-type fitted maximum
Direction: higher = stronger binding
Quantity: relative binding score
Starting sequence: PYL1, truncated, DHFR fusion (Arabidopsis thaliana); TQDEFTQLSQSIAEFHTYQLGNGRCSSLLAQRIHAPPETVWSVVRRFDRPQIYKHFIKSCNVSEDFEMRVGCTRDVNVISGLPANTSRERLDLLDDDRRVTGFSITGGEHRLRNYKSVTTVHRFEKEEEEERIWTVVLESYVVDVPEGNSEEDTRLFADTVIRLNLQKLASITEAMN
A35L: -7.46%
Y115P: -3.96%
T39F: 74.9%
R163Y: 18.5%
V161K: -13.9%
S140W: 5.55%
D3W: 80.4%
R24T: 88.2%
A175D: 81.7%
L8Y: 69.7%
A30L: 88.2%
P83M: 9.56%
I52Y: 78.6%
L156W: 79.6%
V70M: 55.2%
P37C: 67.9%
L169H: 1.32%
A175L: 74.2%

Series 4
Target: RNA binding protein fox-1 homolog 2, RRM domain, GST-SBP tag (RBFOX2, Homo sapiens, UniProt O43251-10, residues 100-194)
Technique: RNA Bind-n-Seq
Molecule type: RNA
Medium: in vitro
Concentration: 365 nM
Setting: natural RNA segment, single round, ends assumed
Relative to: no-protein control
Direction: higher = stronger binding
Quantity: RBNS enrichment (R)
All sequences stand within: GGGAGUUCUACAGUCCGACGAUC … UGGAAUUCUCGGGUGCCAA
Construct (chain): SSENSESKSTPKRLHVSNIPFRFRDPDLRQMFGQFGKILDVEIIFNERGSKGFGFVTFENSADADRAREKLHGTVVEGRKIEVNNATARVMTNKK
UUUCUGAACACCAUAGGUAGAAUGUAAAGCUUGUCUGAUCGUUCAAAGCAUGAAAUGGAUACUUAUAUGGAAAUUCUGCUCAGAUAGAAUGACAGUCCGUCAAAACAGAU: 7.67
CAGCAAAGUAAUUAUGGACCAAUAACUAUGUUCACCCUGAAACUUUUAUGCCACCAAUCACCAAAAAUUGAUACCACAUUCUUUAUUAUAAUGCUUUAUACUUUGCCAGG: 0.57
GCUCAGCCUGCUCUUUCAUAGUCAAGCUUGCUCAUUUAAUUUUUUUAUAAUCAUAUCCAGUAAACGGCCUUGUGUCAUAGUAAGAUAAAAUGGUAUCUUACUGACUCUGU: 0.357
GACUCCUGUUCUUAAACACAAGUGGUUUUUCCUAAUUCCAGAGGAACUGGACGUCACCAAACAAGGUUGCAUUUUACUUUUGCAUCCAGUUUUUAUAGUUUUCCACAACC: 0.58
UUGUGGGGAGUUCAAGAGGCCUUUUCCCCUUGAGGGUGUGGCUGUCCCCCUUUCAGGCGUGUGGCGUCAUUCAUGGAGGAAGUGCUGGCUCUACUUAGCACACGCACAGU: 0.488
CUCAGGAUUGUAUUUAUUUUGCUUACCCCGUGCUCUUGGGUUCUAUAGUAUUUCUAUAAUUAUGUAACGAGAAUAGUGUUGCACUGUAAUCUAUCAUAUAGAGCUAUAUG: 0.279
AUGUCAAGGUCAGCAGUGUUACUUUGAAUGUAAACUGGUAUAAUAGGUAGUUUUCUAUAGUAACUUGAUUAAUUUAGUCUUAAUCCAUUUGAAACUCUCUCUUCCUUUCU: 0.363
AAACACCUUCUGAUGGAGCUGUUGCCUGCAGGCCACUGGUCUUUGGGAAUUUUCAAUAAAGUGCUUGCGAGGAAUCUCCUAUGACCAUGUGGGGCUGGGUGUGAAAGAGG: 1.77
AGACUUGGCUUUAGGACUCUCUGCAUCAGCCUUGUGUGCAUCAGGCACUGGAAAGCCUCUGUCUUCCCAGCCCUUGCCUCUCCAGGAAACUCCACAGGCCUCCAGAGAAU: 0.734
CCACCACCACCUUUUUUCUUUAUUUUAACUGUCAUCAGAAAUUACAUUUGUCAUGUGGGAAGAAUUUAGAUUAUGAUGCAGGAAAUUUCUUCCUGGGGUCAGAAGUUUCU: 0.399
ACAUUUGGGAACAUUUGACUUCCUUGGGACUCUUAAGUGCAUAAUGAUGGCAUGAAGUAAAAGGGGCCUCAAUGAUGAUAGGAAAAUCAGUUCUUUUAAAAUUUCUUCAA: 2.74
ACCUAACCUGCAUCCCAUUUCCAGCCUCUUUUCAAGCUGAGAAAAAAAAAAAAAAACACGUUUGAUACUUUGUACAUCAGAUGCAUCUUAUUUAAAAGGGAUACUUUUGU: 0.631

Series 5
Target: JDP2, bZIP domain (human)
Technique: DHFR protein complementation
Medium: yeast
Setting: single substitutions, most at no-binding floor
Relative to: wild-type JUN-FOS pair
Direction: higher = stronger binding
Quantity: binding fitness
Starting sequence: JUN, bZIP domain (human); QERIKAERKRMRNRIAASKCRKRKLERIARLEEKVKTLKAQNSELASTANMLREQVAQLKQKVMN; partner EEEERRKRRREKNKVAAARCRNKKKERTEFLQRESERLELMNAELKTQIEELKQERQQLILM
R53G: 0.231 natural log
T37V: 0.312 natural log
K34S: 0.35 natural log
K34H: 0.399 natural log
E54C: 0.176 natural log
L31T: 0.11 natural log
L31I: 0.219 natural log
I28W: 0.309 natural log
A40T: 0.423 natural log
V56D: -0.936 natural log
E33W: 0.163 natural log
T37R: 0.295 natural log
K36W: 0.223 natural log
Q41W: -0.4 natural log
A57R: 0.258 natural log
V56N: 0.21 natural log
L52D: -1.02 natural log
L38Q: 0.268 natural log
K36H: 0.295 natural log
S43V: 0.194 natural log
K39P: -0.577 natural log
K34E: 0.28 natural log
A29R: 0.232 natural log
K34N: 0.259 natural log
E54P: -0.531 natural log

Series 6
Target: Interferon regulatory factor 3, full length, phosphomimetic (IRF3, Homo sapiens, UniProt Q14653, residues 1-427, S386D/S396D/S398D/S402D/T404D/S405D)
Technique: protein-binding microarray
Molecule type: double-stranded DNA, one strand shown
Medium: in vitro
Concentration: 2540 nM top
Setting: 60-bp whole probe
With: salmon DNA 0.4 mg/ml
Relative to: random background probes
Direction: higher = stronger binding
Quantity: fitted relative affinity
All sequences stand within: GCCTAGCAC … GTCTTGATTCGCTTGACGCTGCTG
Target sequence (chain): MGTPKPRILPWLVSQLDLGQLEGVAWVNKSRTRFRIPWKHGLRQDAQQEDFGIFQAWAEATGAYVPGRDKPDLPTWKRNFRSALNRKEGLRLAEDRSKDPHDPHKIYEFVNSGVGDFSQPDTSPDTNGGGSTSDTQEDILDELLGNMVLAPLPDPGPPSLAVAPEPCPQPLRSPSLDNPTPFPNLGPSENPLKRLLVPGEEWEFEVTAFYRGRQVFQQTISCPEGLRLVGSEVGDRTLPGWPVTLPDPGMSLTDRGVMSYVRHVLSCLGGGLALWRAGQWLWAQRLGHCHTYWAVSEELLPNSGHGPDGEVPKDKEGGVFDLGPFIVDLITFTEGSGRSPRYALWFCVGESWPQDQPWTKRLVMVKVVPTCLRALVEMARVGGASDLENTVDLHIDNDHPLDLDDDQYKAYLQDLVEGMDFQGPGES
GACGATTCCAGTTTCGAGAAGTGCTAG: 2.82 z-score
GACGGTCTCGACTTTCGGGACGTGCTA: 0.625 z-score
GACGAACTGGGGACCGGAGACGTGCTA: -0.412 z-score
GTCGGTTTCGGTTTCGGGACGTGCTAG: 11.8 z-score
TCAGTAAGCAAAAATGAACTGTGCTAG: -0.436 z-score
TTAGGTAACGGGTATCGGTTAGTGCTA: 0.491 z-score
TGCTTTCTCCCAAGTCTTGTTGTGCTA: 0.734 z-score
TTAGGTCTAGGACTGGGTTAGTGCTAG: -0.823 z-score
GACCATCTCAGACTGGAGACGTGCTAG: 1.31 z-score
TTAGGTATCCGGTTTCGGTTAGTGCTA: 4.8 z-score
GACCGTCTCGGTCTCGGGACGTGCTAG: 1.9 z-score
TTAGATTTCAAACTGGATTAGTGCTAG: 0.744 z-score
TTAGGACGGCTTATCCTTTAGTGCTAG: -0.327 z-score
TATAATATATATTCATATATGTGCTAG: 0.72 z-score
TCACTGTTCTTTTCAGTACTGTGCTAG: 1.47 z-score
TGTGCCATATTTATCTGCAAGTGCTAG: 1.15 z-score
TTAGGATTGGGTTTCGGTTAGTGCTAG: 3.35 z-score
TTGGGTATCCTACTGCTTTAGTGCTAG: 1.27 z-score
TTAGGTATCCTTTTCCGTTAGTGCTAG: 7.58 z-score
TTAGGTTTCGGATTTCGGTTAGTGCTA: 7.69 z-score
GTCGGTATCGGTTTCGGGACGTGCTAG: 8.2 z-score

A few entries again (series 1):
ARYKWKLLINDFG [R5W]: -0.057
ARYKRKLLINKFG [D11K]: 0.286
AIYKRKLLINDFG [R2I]: 0.52
ARYKRKLLINDFV [G13V]: 0.829
ERYKRKLLINDFG [A1E]: 0.294
ARYKRKLLIYDFG [N10Y]: 0.355
ARYKDKLLINDFG [R5D]: 0.338
ARYKRKLLINDFR [G13R]: 0.393
ARYKRKLLDNDFG [I9D]: -0.000246
ARRKRKLLINDFG [Y3R]: 0.0269
ARYKKKLFINDFG [R5K L8F]: 0.299
ARYKRKQLINDFG [L7Q]: 0.309
ARYKRALLINDFG [K6A]: 0.569
